# Measurements of several laboratories.
# Numbered parts are unrelated; each lists some results of a single study.

# Block 1
# Target: Sal-like protein 4, full length isoform B (SALL4, Homo sapiens, UniProt Q9UJQ4-2, residues 1-616)
# Method: universal PBM
# Molecule type: double-stranded DNA, one strand shown
# Matrix: in vitro
# Tested at: not given
# Setting: 8-mer, flanks averaged, mean of replicates
# Reading: higher = stronger binding
# Residues (chain): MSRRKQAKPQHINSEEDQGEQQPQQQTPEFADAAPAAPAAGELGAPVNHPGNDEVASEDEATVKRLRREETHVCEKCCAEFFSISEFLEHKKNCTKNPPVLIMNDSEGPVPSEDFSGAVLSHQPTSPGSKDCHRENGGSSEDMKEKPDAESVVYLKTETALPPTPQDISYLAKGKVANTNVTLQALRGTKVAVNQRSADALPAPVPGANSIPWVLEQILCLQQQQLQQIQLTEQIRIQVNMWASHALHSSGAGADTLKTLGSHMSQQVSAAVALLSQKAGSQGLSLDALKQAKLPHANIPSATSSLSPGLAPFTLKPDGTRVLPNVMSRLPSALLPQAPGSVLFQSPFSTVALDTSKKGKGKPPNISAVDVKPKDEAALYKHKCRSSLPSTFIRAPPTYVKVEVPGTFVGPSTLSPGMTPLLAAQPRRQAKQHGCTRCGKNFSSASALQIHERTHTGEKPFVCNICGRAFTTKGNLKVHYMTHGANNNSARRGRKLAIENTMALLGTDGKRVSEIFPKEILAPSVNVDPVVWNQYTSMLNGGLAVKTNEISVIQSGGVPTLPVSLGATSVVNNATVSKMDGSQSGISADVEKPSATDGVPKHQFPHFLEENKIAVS
Sequence,E-score
ACAAATTA,0.294
AACTTTGG,0.0629
ATGCATAG,0.167
ATAAAGGC,0.118
ATGAGCCA,0.0132
CTGAAACC,-0.114
ATCTAAAG,0.108
ATGTTAGC,0.0959
CTCCCCCA,-0.091
AAGCTCGC,-0.246
AATTGGGG,0.0373
AATGTTAG,0.0803
GCTCAATA,0.0391
CTGGGCCC,-0.359
AATGCTGG,-0.0495
AATTTCAG,0.184
CGACTGAG,-0.33
TCAATGAA,0.0536
CGACTACG,-0.0435
CAGTTGGG,-0.137
CGAATCGC,-0.267
ACGCGTAG,-0.123
ATTCACTC,0.126
TTCCTCAA,0.0869
CTTTCATA,0.377

# Block 2
# Target: Histone acetyltransferase KAT6A, winged helix 1, GST fusion (KAT6A, Homo sapiens, UniProt Q92794, residues 1-85)
# Method: protein binding microarray
# Molecule type: double-stranded DNA, one strand shown
# Matrix: in vitro
# Tested at: not given
# Setting: 8-mer, flanks averaged, mean of 2 arrays, mostly near background
# Reference: not given
# Reading: higher = stronger binding
# Construct (chain): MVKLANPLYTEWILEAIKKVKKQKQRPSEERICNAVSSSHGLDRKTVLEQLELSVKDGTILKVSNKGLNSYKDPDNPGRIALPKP
Sequence,E-score
GGAAGACC,0.0624
TGGTCGAA,-0.368
ATGGGTCA,-0.328
AAAGTGTC,-0.0887
TCAAGCAA,-0.207
AGTTCGCC,0.00066
ACTCCCGC,0.342
CCTGTTCG,-0.0565
CGCTTACC,0.268
ATGCTAGG,-0.0345
GCTTAACA,0.0321
TAATTGCA,-0.024
ACCAATTC,-0.207
TACCAAGA,0.0695
TATAGTGA,-0.146
ATCGATGG,-0.179
GGCTTATA,-0.00919
GCTAATAA,0.0199
AGCGCGTG,0.321
AGGCGGAA,0.116
ACACTTTC,-0.0946
ATATTAAT,0.0233
TACTCCAA,-0.0254
GGCTACGA,0.0865
CTACTAAC,-0.0565

# Block 3
# Target: RNA binding protein fox-1 homolog 2, RRM domain, GST-SBP tag (RBFOX2, Homo sapiens, UniProt O43251-10, residues 100-194)
# Method: RNA Bind-n-Seq
# Molecule type: RNA
# Matrix: in vitro
# Tested at: 365 nM
# Setting: natural RNA segment, single round, ends assumed
# Reference: no-protein control
# Reading: higher = stronger binding
# Shared flanks, not repeated: GGGAGUUCUACAGUCCGACGAUC … UGGAAUUCUCGGGUGCCAA
# Construct (chain): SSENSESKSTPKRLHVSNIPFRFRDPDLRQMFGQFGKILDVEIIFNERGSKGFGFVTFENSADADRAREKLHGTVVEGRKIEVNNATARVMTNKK
Sequence,RBNS enrichment (R)
AACAGACUUGGGUUUUCCCAAUACCUGACUAUACUUUUGUGAUUCAGUUCAGCUUAAAGAACGCCAGUUAGGCCGGGCGUGGUGGCGCACGUCUUUAAUCCCAGCACUUG,0.386
UGUCAUCGUCAGCGUGUCAUCUGGAUGUACGAAGGUAGUAAAAAAGGGUUUCAGAACAGAGCCACGGGACUGGUAGGAAGAGGAGAUCCACAAAUGCUGUAUACAGGCUG,0.621
AGCCAGCCUGGGCCCAAUGAAACCUGGUCUCAAGAGAACAAAACCAAACCAAUCAAAUAUGGUCCUAAGAAUGCAGGGUGGGAUUAGAGCCAGUGUCUCUGCUUGAGAUG,1.42
UAGUUAUUGUAUUGCUACAAUUUAAAUAUUAAAACAAAUAAGAGCUUUCUCAACAAAUUAGUCCAUCUCAUUGAUGUACCACAGAAAUCCAAAGCUUUGCUGUCAUCACA,0.503
GACGGGCACAGACUUGCGUCAUCUCGUUUCCACAGUUGACGUUUUAUAUUACUUUCUCAAAUUAAGUUACCAAAACAAACUGAAGAGCUGAAGCAGGUCUUCCAGACCCU,0.303
CCCUGUGGGGCUCAAUGUGGUGUCGCCUCUCUGGGCUGAGUGACUUGAUUUGACCAGCAUGCACUCAGAUUAGCUGCUCGACAGAGGUGUCCCCUUUUCAAUGAACCAUC,5.46
UGUGCCCCACUCAUCUGGGGACAGAUGGUUUUUCUUUAUUGUAAAAUUGUGGACUUUUAAAACCUGUUGACUAAACAGUAAUUAAUUUAUAUUUGUGAAAAAUGCCACUG,0.433
UUUUUAACUGAAAGAUUAUUUCUAGAUGGGUAGUGCUUUGUGCUGGUUUCUGCUUCCAUAUAUUUCCCAGUCAUUUUAAUUAGAGAAGAUACUCUAUGGUAGAACUAAGG,0.529

# Block 4
# Target: RING finger protein unkempt homolog, zinc fingers 1-6, GST-SBP tag (UNK, Homo sapiens, UniProt Q9C0B0, residues 30-357)
# Method: RNA Bind-n-Seq
# Molecule type: RNA
# Matrix: in vitro
# Tested at: not given
# Setting: RNA with constant flanks, ends assumed
# Reference: input RNA pool
# Reading: higher = stronger binding
# Shared flanks, not repeated: GGGAGUUCUACAGUCCGACGAUC … CAACAGAGGAUUGAGCAUCA
# Construct (chain): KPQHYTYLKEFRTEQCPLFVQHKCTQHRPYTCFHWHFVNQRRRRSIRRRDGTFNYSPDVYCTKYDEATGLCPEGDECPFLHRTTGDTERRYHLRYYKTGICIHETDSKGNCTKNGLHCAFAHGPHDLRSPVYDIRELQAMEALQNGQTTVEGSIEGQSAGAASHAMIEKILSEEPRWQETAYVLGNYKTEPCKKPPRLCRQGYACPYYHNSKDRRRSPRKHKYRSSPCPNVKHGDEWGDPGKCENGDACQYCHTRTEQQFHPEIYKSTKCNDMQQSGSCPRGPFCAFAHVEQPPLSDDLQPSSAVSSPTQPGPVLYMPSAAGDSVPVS
Sequence,bound/input enrichment [ratio]
UCACAAGCACAAAUCUUUCCCACUAGCCAUUUAAUAAGUUAAAAAAAGAUACACAAACCUACCCGUCUUGAACAAACUGUCAUACGUAUGGGACCUACACUUAAUCUCUAUGCUUUACAC,15.8
GUCAAGGCCAAAACACUAAGAAAGCUGAUCCAGCAAACAUUCAGGCAGUUUGCCAACCUUAACCGAGAAGAAAGCAUCCUGAAAUUCUUUGAGAUUCUUUCUCCUGUGUACAGAUUUGAC,0.469
AUGCUGACUGGUAAAACCCUUUUUGCAGGUGCACAUGAACUUGAACAGAUGCAGCUGAUUUCCGAAUCUAUUCCUGUUGUACAUGAGGAAGAUCGUCAGGAGCUUCUCAGCGUAAUUCCA,0.063
ACUCCCUGGUUCUGGCCCAAAGACAAGACCAAAGUCUGGUCUAAGCCCAAAGAAGAGCCCAACCGCCGGUCCUGGUUUAGGUCUAAGAAAGAAGUCCGUGUUGAAUCCACUUCUGGGUCU,0.232
AGUAGUUUUAAGCUUGUUUGCACAGUUCUUUUUUUCCAUUGGAAAUGGAAUUCAUUGCCUCCGGUCUUUUUAAAUAGUGUAUUAUUAUCGUUGGGGCUGGCUCUAUGCUUGAAAACCAGU,4.65
CAGGUGGCAGAGGAGCUGGGGCAUCGCCCACCGCUGUAGCCAGCUGCAUAGUUUAAGCCGCUCCGCACAGCAGAAUUUGGAAACACUUAAAAAAGCAAAAGGGUGUACAAUCAUAUUUAC,0.254
UUGUAAUGUGGCCUGAAAACAAGCUAACUGUAUUAGAAACUAUUCAAAAACUAGGUAUUUUCCGUGACCUGUAGGCAGUGGCAAAUACAGACAUGUGAACCUUGAAUACAUUACAUUUCU,0.735
UAUCCUAUUGCGGUGCUCAUAGAUGAACUCCGCAAUGAGGACGUUCAGCUUCGUCUCAACCGUAUCAAGAAGCUCUCCACAAUUGCCUUGGCCCUUGGGGUUGAACGGACCAGAAGUGAG,0.123

# Repeated from above (block 2):
Sequence,E-score
GCTTAACA,0.0321
TAATTGCA,-0.024
ACCAATTC,-0.207
TACCAAGA,0.0695
TATAGTGA,-0.146
ATCGATGG,-0.179
